# Measured values gathered from unrelated publications.
# Parts stem from different laboratories: compare values within a part only. Values joined by “and” are separate records of one study, mostly repeats; a detail may differ.
# Sequence of UniProt P41595 (whole entry, looked up): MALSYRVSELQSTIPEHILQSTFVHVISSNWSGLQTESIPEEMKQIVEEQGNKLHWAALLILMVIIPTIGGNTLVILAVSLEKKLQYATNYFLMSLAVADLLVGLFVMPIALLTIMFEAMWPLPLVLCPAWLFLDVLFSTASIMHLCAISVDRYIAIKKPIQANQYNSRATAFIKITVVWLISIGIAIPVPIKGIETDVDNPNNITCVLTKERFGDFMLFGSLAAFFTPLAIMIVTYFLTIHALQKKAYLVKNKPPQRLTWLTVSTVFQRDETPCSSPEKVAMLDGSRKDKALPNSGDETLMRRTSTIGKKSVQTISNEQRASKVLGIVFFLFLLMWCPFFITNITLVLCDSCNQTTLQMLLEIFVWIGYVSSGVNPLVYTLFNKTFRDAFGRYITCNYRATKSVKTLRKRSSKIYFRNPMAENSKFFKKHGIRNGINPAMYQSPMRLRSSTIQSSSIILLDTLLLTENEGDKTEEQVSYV

# Study 1 — medium: 1,9-decadiene/PBS; pH: 7.4
Compound,logD
CC(C)C[C@@H]1NC(=O)[C@H](C(C)C)NC(=O)[C@@H](CC(C)C)NC(=O)[C@@H](CC(C)C)NC(=O)[C@H](C)NC(=O)[C@H](CC(C)C)NC(=O)[C@@H](CC(C)C)NC1=O,1.5
CC(C)C[C@@H]1NC(=O)[C@H](C)NC(=O)[C@H](C)NC(=O)[C@H](CCC(=O)N2CCCC2)NC(=O)[C@H](CC(C)C)NC(=O)[C@H](CC(C)C)NC(=O)[C@@H](CC(C)C)NC1=O,-2.12
CC(C)C[C@@H]1NC(=O)[C@H](C)NC(=O)[C@H](C(C)C)NC(=O)[C@H](C)NC(=O)[C@H](C)NC(=O)[C@H](CC(C)C)NC(=O)[C@H](CC(C)C)NC1=O,-2.11
CC(C)C[C@@H]1NC(=O)[C@H](CC(C)C)NC(=O)[C@@H](CC(C)C)NC(=O)[C@@H](CC(C)C)NC(=O)[C@H](C(C)C)NC(=O)[C@H](CC(C)C)NC(=O)[C@@H](CC(C)C)NC1=O,2.98
CC(C)C[C@@H]1NC(=O)[C@H](C)NC(=O)[C@H](CC(C)C)NC(=O)[C@@H](CC(C)C)NC(=O)[C@H](CC(C)C)NC(=O)[C@H](C)NC(=O)[C@H](CCC(=O)N2CCCC2)NC1=O,-2.31
CC(C)C[C@@H]1NC(=O)[C@H](C(C)C)NC(=O)[C@H](Cc2cscn2)NC(=O)[C@@H](CC(C)C)NC(=O)[C@H](C(C)C)NC(=O)[C@H](CC(C)C)NC(=O)[C@@H](CC(C)C)NC1=O,0.575
CC(C)C[C@@H]1NC(=O)[C@@H](C)NC(=O)[C@H](C)NC(=O)[C@@H](C(C)C)NC(=O)[C@H](C(C)C)NC(=O)[C@H](CC(C)C)NC(=O)[C@@H](CC(C)C)NC1=O,-1.4
CC(C)C[C@@H]1NC(=O)[C@H](C)NC(=O)[C@H](CCC(=O)N2CCCC2)NC(=O)[C@H](C)NC(=O)[C@H](CC(C)C)NC(=O)[C@H](CC(C)C)NC(=O)[C@H](CC(C)C)NC1=O,-1.66
CC(C)C[C@@H]1NC(=O)[C@H](CC(C)C)NC(=O)[C@H](CC(C)C)NC(=O)[C@H](C(C)C)NC(=O)[C@@H](Cc2cscn2)NC(=O)[C@@H](CC(C)C)NC(=O)[C@H](C)NC1=O,0.0765

# Study 2 — method: flow cytometry
# Compound: CC(C)C[C@@H]1NC(=O)[C@@H](N(C)C(=O)[C@H](CC2CCC2)NC(=O)[C@@H]2C[C@@H](F)CN2C(=O)C2(C(F)(F)F)CC(F)(F)C2)CCCCNC(=O)C2(CC2)NC(=O)[C@H](Cc2cc(Cl)ccc2Cl)N(C)C1=O
cell line,conditions,cleaved PARP positive cells
NCI-H446,"200 nM, 72 h",13.9% and 10.7% and 14.9%
NCI-H82,"20 nM, 72 h",4.34% and 2.64% and 3.96%
HCC4006,"20 nM, 72 h",1.08% and 1.26% and 0.52%
NCI-H446,"20 nM, 3 days, with: Mps1 inhibitor 3 nM",12.4% and 11.9% and 13.3%
NCI-H446,"2 nM, 3 days, without Mps1 inhibitor",10.7% and 12.5% and 10.3%
human CD34+ HSPC,"3000 nM, 24 h",3.18% and 3.05%
NCI-H1299,"2000 nM, 72 h",2.8% and 4.53% and 4.2%

# Study 3 — read-out: enzyme activity; mode: inhibitor; tested at: 10 µM
# Target: Calcium/calmodulin-dependent protein kinase type II subunit alpha (CAMK2A, Homo sapiens, UniProt Q9UQM7)
# Sequence of UniProt Q9UQM7 (whole entry, looked up): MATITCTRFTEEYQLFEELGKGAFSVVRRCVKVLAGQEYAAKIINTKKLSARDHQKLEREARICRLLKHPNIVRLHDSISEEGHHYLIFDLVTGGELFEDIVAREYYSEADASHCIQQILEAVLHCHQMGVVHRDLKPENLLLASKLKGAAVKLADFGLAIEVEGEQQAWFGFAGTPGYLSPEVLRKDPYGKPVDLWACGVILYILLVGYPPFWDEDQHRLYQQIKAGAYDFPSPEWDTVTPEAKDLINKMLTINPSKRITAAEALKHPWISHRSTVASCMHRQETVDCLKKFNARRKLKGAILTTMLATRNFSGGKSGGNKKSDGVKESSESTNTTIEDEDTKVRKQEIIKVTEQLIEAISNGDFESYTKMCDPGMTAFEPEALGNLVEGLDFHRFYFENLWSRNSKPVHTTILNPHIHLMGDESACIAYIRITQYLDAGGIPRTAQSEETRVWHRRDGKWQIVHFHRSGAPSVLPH
SMILES,inhibition [%]
O=c1c2cc(O[C@@H]3O[C@H](CO)[C@@H](O)[C@H](O)[C@H]3O)c(O)cc2oc2cc(O)c([C@@H]3O[C@H](CO)[C@@H](O)[C@H](O)[C@H]3O)c(O)c12,-2
CC(C)(S)[C@@H](N)C(=O)O,15
COc1c(O)c(C)cc2c1C(=O)c1c(O)cccc1C2=O,2
Cc1cc2nc3c(=O)[nH]c(=O)nc-3n(C[C@H](O)[C@H](O)[C@H](O)COP(=O)(O)OP(=O)(O)OC[C@H]3O[C@@H](n4cnc5c(N)ncnc54)[C@H](O)[C@@H]3O)c2cc1C,-2
Cc1cc(S(=O)(=O)O)c2c(C)ccc(C(C)C)cc1-2,-2
Cn1c(=O)[nH]c2[nH]cnc2c1=O,14
COC(=O)c1c[nH]c2ccccc12,31
CC1(C)CC[C@]2(C(=O)O)CC[C@]3(C)C(=CC[C@@H]4[C@@]5(C)C[C@H](O)[C@H](O)[C@@](C)(CO)[C@@H]5CC[C@]43C)[C@@H]2C1,15
CCCCCCCCCCCCCCCC=O,-6
CCCCCCCCCCCCCCCCCCOCC(O)CO (stereo not shown),18

# Other studies, line by line
SMILES,target or system,test,conditions,measurement,result
CNC(=O)Nc1ccc2c(c1)CC[C@]21OC(=O)N(CC(=O)N(Cc2ccc(F)cc2)[C@@H](C)C(F)(F)F)C1=O,"HTR2B (Homo sapiens, UniProt P41595)",binding,off-target scan,Ki,1290 nM
Cn1cncc1[C@@](O)(COc1ccc(C#N)cc1-c1ccc(OC(F)(F)F)cc1)c1ccc(C#N)cc1,HEK293T,high-content imaging,"10 µM, 0 h",apoptotic cells,21.6% and 16.7%
